Measured values of several laboratories.
Every numbered part comes from another study and shows a few of its results, in no order.

Set 1 — method: RNA Bind-n-Seq; molecule type: RNA; sample: in vitro; concentration: 365 nM; baseline: no-protein control; reading: higher = stronger binding; measurement: RBNS enrichment (R)
Target: RNA binding protein fox-1 homolog 2, RRM domain, GST-SBP tag (RBFOX2, Homo sapiens, UniProt O43251-10, residues 100-194)
Notes: natural RNA segment, single round, ends assumed
Construct (chain): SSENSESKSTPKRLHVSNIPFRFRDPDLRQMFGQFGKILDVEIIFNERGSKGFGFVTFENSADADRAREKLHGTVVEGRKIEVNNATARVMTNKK
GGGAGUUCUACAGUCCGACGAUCAGUGGGUGAGUGGGGAUGACCUGGCUUCCAAGAGGACUGUCACUGUGGACACCAAAAUGGCUUAACUGAGAUACAGUGAAAACAUGACAAAUAAACCAACUUUUUACAAGUGGAAUUCUCGGGUGCCAA: 0.294
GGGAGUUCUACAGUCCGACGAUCCACUCACACUCGUCCCCAGCUUAGCACAGAGCUGGAGCGCCCAUUUCUGGAAUUUUCCGUUUGGGAAUCUCCACUUCUGGGGUUUACCUGUUCGGCCUCCUGUCUAUCAGUGGAAUUCUCGGGUGCCAA: 0.382
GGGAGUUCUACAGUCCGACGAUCCUCCGGGGCCCCUUCCUGACUCUCCCCACCUUCGCCACUUGUCUCUAGGCUAUGGGACAAUCAUCCCAUUCACCACUUGACAUCCUUGACAUCCUUGACUUUCAUUCCCCUGGAAUUCUCGGGUGCCAA: 0.222
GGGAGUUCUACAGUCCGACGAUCUAGCAGAUGCCGCAACUCCACACAGUGUGUAAAAUAUAUACAACCAAAAAUCAGCUUUUGCAGGUCUUUAUUUCUUCUGUAAAACAGUAGGUAACUUUUCCUAGGUUUCAUGGAAUUCUCGGGUGCCAA: 0.416
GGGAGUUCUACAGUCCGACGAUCUAUGCAAUCCUAAAGGACGAAACUCACCCAUGGGAGGCCGAAUUCUCCUUGGGAUGAAGAAAUUUCUCUUUCCCUGUCAUGAGUGUCCAGCCAGGGAGCAGGGAGGCAGUUGGAAUUCUCGGGUGCCAA: 0.456
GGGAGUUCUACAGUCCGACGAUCUUGAGAAACACAUAACAUCUCUCCUUUCUAUGAAAAAUUUUUUAAAAGGUGGUUAAAAUUGCCUUUAAUUGCCCAGUAGACUAAUUCCACAGUCAGAACAUGCAAACUUUUGGAAUUCUCGGGUGCCAA: 0.701
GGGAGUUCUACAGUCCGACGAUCUCCCGGACCUGGAUGUACAGGGCAGUCUCUCUUCCCGGGGCUAUGGCUGGGCCUGUCCUGCCGUCAUGGCCCCCUGCUUCCUGCUCCUUGGAGCUGGCUCCCGGACCUUGUGGAAUUCUCGGGUGCCAA: 0.552
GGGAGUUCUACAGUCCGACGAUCAAAUAAACUUGUGAAGUCUGUUUAUUUUGAAGUAUUGGUGAACUAGGCUUGCUAAUUGAUAACUGCAGCAGUUUGUGUUUACUCCAGUUCAUCAGCUUAGGUCAUUUGAAUGGAAUUCUCGGGUGCCAA: 0.912

Set 2 — method: competition protein-binding microarray; molecule type: double-stranded DNA, one strand shown; sample: in vitro; concentration: 2 µM; together with: Cbf1 competitor, 0.05 µM; reading: higher = stronger binding; measurement: fluorescence intensity
Target: Phosphate system positive regulatory protein PHO4, full length, GST-tagged (PHO4, Saccharomyces cerevisiae, UniProt P07270, residues 1-312)
Notes: whole 60-bp probe, lowest competitor level
Construct (chain): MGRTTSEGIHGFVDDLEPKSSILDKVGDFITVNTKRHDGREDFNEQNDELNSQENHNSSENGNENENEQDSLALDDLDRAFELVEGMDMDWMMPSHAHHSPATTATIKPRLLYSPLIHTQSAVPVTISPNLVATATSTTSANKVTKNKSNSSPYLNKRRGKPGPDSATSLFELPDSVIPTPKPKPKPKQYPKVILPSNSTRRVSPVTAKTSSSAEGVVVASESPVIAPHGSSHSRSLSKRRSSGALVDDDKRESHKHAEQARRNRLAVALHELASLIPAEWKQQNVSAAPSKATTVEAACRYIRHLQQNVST
AAAGCGGTAATTTGATGCGTGGGTGCAGATATCTATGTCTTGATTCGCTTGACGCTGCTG: 8270 a.u.
CATACCCAACCTTGGTGAGTGGGTGAAGATATTTGTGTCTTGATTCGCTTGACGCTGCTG: 4550 a.u.
CGTCCTAGTGATTGCCTCGTGGGTGCCATGAGGAAGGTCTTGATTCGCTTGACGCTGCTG: 13300 a.u.
CACAAGGCCCAATCAATGGTGGTATCGAAGTTACATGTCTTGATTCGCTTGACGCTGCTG: 4400 a.u.
ATTTTTCTTTCGAGTCACGTCACCGCTACTAATGTTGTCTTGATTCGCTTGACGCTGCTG: 4790 a.u.
CTAACGAAGGTTTGGAAGGTGGGTGACAAGCCAAGTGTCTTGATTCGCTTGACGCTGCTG: 4190 a.u.
ATTCGCATCTCTGGACACGTGCTTTATGTAGTTGACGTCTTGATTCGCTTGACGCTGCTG: 19800 a.u.
AAAGCGGTAATTTGTCACTACACTTCACATATCTATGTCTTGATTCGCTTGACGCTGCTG: 3410 a.u.
GCAAACGACGAGCTTCACGTTCAGATTCCATTAGAAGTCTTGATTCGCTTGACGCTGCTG: 5470 a.u.
GTATTATTATTCAAACGCGTGGTGATAGTCCCTTGAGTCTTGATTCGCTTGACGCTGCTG: 11300 a.u.
TACGTTCTGAGAAAGCACGTGAAGGAAGAGAAAACCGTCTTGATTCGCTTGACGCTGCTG: 13200 a.u.
TAACTAATAAGTAGTCACCTGACTGTGATATAAATTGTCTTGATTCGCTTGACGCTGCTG: 4040 a.u.

Set 3 — method: protein binding microarray; molecule type: double-stranded DNA, one strand shown; sample: in vitro; concentration: not given; baseline: not given; reading: higher = stronger binding; measurement: E-score
Target: Histone acetyltransferase KAT6A, winged helix 2, GST fusion (KAT6A, Homo sapiens, UniProt Q92794, residues 85-181)
Notes: 8-mer, flanks averaged, mean of 2 arrays, mostly near background
Residues (chain): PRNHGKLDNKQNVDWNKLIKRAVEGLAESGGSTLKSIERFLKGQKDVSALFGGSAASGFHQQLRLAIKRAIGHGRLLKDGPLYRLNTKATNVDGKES
GCGGATTA: 0.0306
CCCACAAC: 0.141
CAGCAAGA: 0.188
AGGATCTG: -0.173
AGCATTTC: 0.0233
GATTCAAC: 0.0245
GATACAGA: -0.00253
AACTCCAC: 0.0174
ACGATCAC: -0.144
AATAGCAC: -0.0448
AGCGTTAA: -0.131
AGTAGATC: -0.066
GGCGCCCA: 0.248
AGGTTTCA: -0.0139
ATCATCTC: 0.0878
CGGGCATA: -0.00222
ATGAAAGA: -0.0164
CGTTGCCA: 0.0138

Mixed results — molecule type: peptide; organism: Saccharomyces cerevisiae; reading: direction not given
GAPLKKLFTSTGL — enrichment score (human cyclin A2; peptide binding, competitive growth sequencing; cyclin A2-Cln2 fusion strain; mutational scanning library 1): -0.672
REASKSRVQLFKDDPM — enrichment score (human cyclin B1-Cln2 fusion; yeast growth, competitive growth deep sequencing; peptide tiling library): -0.379

A few entries again (set 3):
CAGCAAGA: 0.188
AGGATCTG: -0.173
AGCATTTC: 0.0233
GATTCAAC: 0.0245
GATACAGA: -0.00253
AACTCCAC: 0.0174
